Results pooled from the literature.
Each numbered part is a random draw from the data of one study; scales do not carry over between parts. Positions count from the first letter of the parent shown.

Study 1 — technique: RNAcompete; form: RNA; sample: in vitro; tested at: 20 nM; notes: 7-mer, probes averaged, single round; reference: mean of 7-mers; reading: higher = stronger binding; quantity: 7-mer Z-score
Target: PABPC1L2, full length, GST fusion (mouse, UniProt A0ABA7IW68)
Construct (chain): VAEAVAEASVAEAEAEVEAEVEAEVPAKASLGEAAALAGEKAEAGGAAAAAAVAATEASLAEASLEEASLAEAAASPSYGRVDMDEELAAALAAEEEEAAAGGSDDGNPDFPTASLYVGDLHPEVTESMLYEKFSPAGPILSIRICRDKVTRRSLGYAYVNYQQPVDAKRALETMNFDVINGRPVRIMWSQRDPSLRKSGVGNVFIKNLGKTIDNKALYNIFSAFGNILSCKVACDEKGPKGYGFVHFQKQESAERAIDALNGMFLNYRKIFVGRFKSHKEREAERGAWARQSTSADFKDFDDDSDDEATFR
Strand = GGUUUUC; result = -0.405
Strand = CGUCGUC; result = -0.454
Strand = GCUUCCG; result = -0.287
Strand = GGGAUGU; result = 0.066
Strand = UGCGACA; result = 0.000733
Strand = GUCUCCA; result = -0.309
Strand = UCACAGC; result = -0.219
Strand = ACGGCUA; result = 0.00436
Strand = GAUCUUU; result = -0.11
Strand = UGCGCGG; result = 0.0805
Strand = AACGGGG; result = 0.448
Strand = UUUGAUC; result = -0.211
Strand = AUUAGCA; result = -0.00833
Strand = CCUAUCC; result = -0.47
Strand = GCAUUAC; result = -0.0373

Study 2 — technique: protein-binding microarray; form: double-stranded DNA, one strand shown; sample: in vitro; tested at: 250 nM; notes: 60-bp whole probe; together with: salmon DNA 0.4 mg/ml; reference: random background probes; reading: higher = stronger binding; quantity: log fluorescence; constant ends, left off below: GCCTAGCAC … GTCTTGATTCGCTTGACGCTGCTG
Target: Interferon regulatory factor 5, full length, phosphomimetic (IRF5, Homo sapiens, UniProt Q13568-2, residues 1-514, K96S/S451D/S453D/S456D/S462D)
Strand = GACGAACTGAGACTGGTGACGTGCTAG; result = -0.428 z-score
Strand = ATCTTTTTCCTAATTGAACCGTGCTAG; result = 0.912 z-score
Strand = TTGGGTATCGACACTGGGTTAGTGCTA; result = 2.24 z-score
Strand = TTAGGTATCTGTATCGGTTAGTGCTAG; result = 5.96 z-score
Strand = CAGCCGCACAGCATGAGTTCGTGCTAG; result = -0.919 z-score
Strand = TTAGATTCCAGTTTCGAGTAGTGCTAG; result = 6.69 z-score
Strand = TCACCTAACATGCTTCGAACTGTGCTA; result = 0.262 z-score
Strand = GACGGTATCGACCATCGGGACGTGCTA; result = 1.71 z-score
Strand = TTAGGACTGGACACTGTGTTAGTGCTA; result = -0.729 z-score
Strand = TTAGCTTTCCTTTTCCTTTAGTGCTAG; result = 2.02 z-score
Strand = TCACATTCCCCATTGTGACTGTGCTAG; result = 0.107 z-score

Study 3 — target: CCNB3, cyclin fold, Cln2 fusion (human); technique: yeast growth competition, sequencing; sample: yeast; notes: weak parent motif; reference: not given; reading: higher = stronger binding; quantity: normalised enrichment score
Starting sequence: PKN2 docking peptide (human); VSAVQKLDFSDTM; partner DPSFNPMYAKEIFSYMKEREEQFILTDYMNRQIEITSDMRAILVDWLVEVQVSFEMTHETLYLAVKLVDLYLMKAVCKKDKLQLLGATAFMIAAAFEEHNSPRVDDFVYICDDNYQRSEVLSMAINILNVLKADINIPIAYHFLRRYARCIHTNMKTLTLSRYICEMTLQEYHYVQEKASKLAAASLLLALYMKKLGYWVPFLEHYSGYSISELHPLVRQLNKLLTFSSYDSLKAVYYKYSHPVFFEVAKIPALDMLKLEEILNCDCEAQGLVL
Change = VSAVQKMDFSDTM [L7M]; result = 0.152
Change = VSAVQKFDFSDTM [L7F]; result = 0.357
Change = VSAHQKLDFSDTM [V4H]; result = 0.276
Change = VSAVQKIDFSDTM [L7I]; result = -0.202
Change = VSAVQKLDFSDTK [M13K]; result = -0.0931
Change = VSAVQILDFSDTM [K6I]; result = 0.246
Change = MSAVQKLDFSDTM [V1M]; result = 0.258
Change = VSAVQKLDFHDTM [S10H]; result = 0.388
Change = FSAVQKLDFSDTM [V1F]; result = 0.748
Change = VSRVQKLDFSDTM [A3R]; result = 0.118
Change = VSAVQKLYFSDTM [D8Y]; result = 0.384
Change = VSAVQKLDQSDTM [F9Q]; result = 0.228
Change = VSAVQKLNFSDTM [D8N]; result = -0.0392
Change = VSAWQKLDFSDTM [V4W]; result = 0.226
Change = ASAVQKLDFSDTM [V1A]; result = -0.0483
Change = VSAVQKLDFSDYM [T12Y]; result = 1.02

Other studies, line by line
Molecule = PhoQ, residues 284 288 289 292 302 303 NLCILV; target = PhoP, residues 12 14 15 18 19 YHFSH (Escherichia coli, UniProt P23836); test = Sort-seq, refers to: YFP reporter; system = E. coli; conditions = PhoQ-PhoP variant library, together with: 10 µM Mg2+; how to read = reference: high Mg2+ state, higher = stronger signaling; quantity = fold induction; result = 1.95

Excerpt of the above (study 3):
Change = VSAVQKIDFSDTM [L7I]; result = -0.202
Change = VSAVQKLDFSDTK [M13K]; result = -0.0931
Change = VSAVQILDFSDTM [K6I]; result = 0.246
Change = MSAVQKLDFSDTM [V1M]; result = 0.258
Change = VSAVQKLDFHDTM [S10H]; result = 0.388
